Experimental data gathered from unrelated publications.
Each line is one published result; not all experiments were run side by side. ± marks the error that the study gave. Square brackets hold non-standard residues; d marks the D form. Ends that are not written are not given here. No end group written: not given here. * marks the point of attachment. *: point of attachment.
B1: CyaY 1-106 (Escherichia coli, UniProt P27838); chain MNDSEFHRLADQLWLTIEERLDDWDGDSDIDCEINGGVLTITFENGSKIIINRQEPLHQVWLATKQGGYHFDLKGDEWICDRSGETFWDLLEQAATQQAGETVSFR
B2: acrA (Escherichia coli, UniProt P0AE06); N-terminal lipid at C25; chain CDDKQAQQGGQQMPAVGVVTVKTEPLQITTELPGRTSAYRIAEVRPQVSGIILKRNFKEGSDIEAGVSLYQIDPATYQATYDSAKGDLAKAQAAANIAQLTVNRYQKLLGTQYISKQEYDQALADAQQANAAVTAAKAAVETARINLAYTKVTSPISGRIGKSNVTEGALVQNGQATALATVQQLDPIYVDVTQSSNDFLRLKQELANGTLKQENGKAKVSLITSDGIKFPQDGTLEFSDVTVDQTTGSITLRAIFPNPDHTLLPGMFVRARLEEGLNPNAILVPQQGVTRTPRGDATVLVVGADDKVETRPIVASQAIGDKWLVTEGLKAGDRVVISGLQKVRPGVQVKAQEVTADNNQQAASGAQPEQSKS
B3: wzb (Escherichia coli, UniProt P0AAB2); chain MFNNILVVCVGNICRSPTAERLLQRYHPELKVESAGLGALVGKGADPTAISVAAEHQLSLEGHCARQISRRLCRNYDLILTMEKRHIERLCEMAPEMRGKVMLFGHWDNECEIPDPYRKSRETFAAVYTLLERSARQWAQALNAEQV
B4: LY96 LOS-bound (Homo sapiens, UniProt Q9Y6Y9); sequence looked up; chain QKQYWVCNSSDASISYTYCDKMQYPISINVNPCIELKRSKGLLHIFYIPRRDLKQLYFNLYITVNTMNLPKRKEVICRGSDDDYSFCRALKGETVNTTISFSFKGIKFSKGKYKCVVEAISGSPEEMLFCLEFVILHQPNSN
B5: FBLN5 42-448 (Homo sapiens, UniProt Q9UBX5); chain DIDECRTIPEACRGDMMCVNQNGGYLCIPRTNPVYRGPYSNPYSTPYSGPYPAAAPPLSAPNYPTISRPLICRFGYQMDESNQCVDVDECATDSHQCNPTQICINTEGGYTCSCTDGYWLLEGQCLDIDECRYGYCQQLCANVPGSYSCTCNPGFTLNEDGRSCQDVNECATENPCVQTCVNTYGSFICRCDPGYELEEDGVHCSDMDECSFSEFLCQHECVNQPGTYFCSCPPGYILLDDNRSCQDINECEHRNHTCNLQQTCYNLQGGFKCIDPIRCEEPYLRISDNRCMCPAENPGCRDQPFTILYRDMDVVSGRSVPADIFQMQATTRYPGAYYIFQIKSGNEGREFYMRQTGPISATLVMTRPIKGPREIQLDLEMITVNTVINFRGSSVIRLRIYVSQYPF
B6: lexA 81-204 S125A (Pseudomonas aeruginosa, UniProt P37452); FlAsH-labeled tetracysteine tag; sequence looked up; chain GLPVIGRVAAGAPILAEQNIEESCRINPAFFNPRADYLLRVRGMAMKDIGILDGDLLAVHVTREARNGQVVVARIGEEVTVKRFKREGSKVWLLAENPEFAPIEVDLKEQELIIEGLSVGVIRR
Chain of UniProt P24807 (whole entry, looked up): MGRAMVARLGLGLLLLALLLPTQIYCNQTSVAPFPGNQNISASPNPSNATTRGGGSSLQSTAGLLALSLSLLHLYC
Chain of UniProt P76387 (whole entry, unmodified, looked up): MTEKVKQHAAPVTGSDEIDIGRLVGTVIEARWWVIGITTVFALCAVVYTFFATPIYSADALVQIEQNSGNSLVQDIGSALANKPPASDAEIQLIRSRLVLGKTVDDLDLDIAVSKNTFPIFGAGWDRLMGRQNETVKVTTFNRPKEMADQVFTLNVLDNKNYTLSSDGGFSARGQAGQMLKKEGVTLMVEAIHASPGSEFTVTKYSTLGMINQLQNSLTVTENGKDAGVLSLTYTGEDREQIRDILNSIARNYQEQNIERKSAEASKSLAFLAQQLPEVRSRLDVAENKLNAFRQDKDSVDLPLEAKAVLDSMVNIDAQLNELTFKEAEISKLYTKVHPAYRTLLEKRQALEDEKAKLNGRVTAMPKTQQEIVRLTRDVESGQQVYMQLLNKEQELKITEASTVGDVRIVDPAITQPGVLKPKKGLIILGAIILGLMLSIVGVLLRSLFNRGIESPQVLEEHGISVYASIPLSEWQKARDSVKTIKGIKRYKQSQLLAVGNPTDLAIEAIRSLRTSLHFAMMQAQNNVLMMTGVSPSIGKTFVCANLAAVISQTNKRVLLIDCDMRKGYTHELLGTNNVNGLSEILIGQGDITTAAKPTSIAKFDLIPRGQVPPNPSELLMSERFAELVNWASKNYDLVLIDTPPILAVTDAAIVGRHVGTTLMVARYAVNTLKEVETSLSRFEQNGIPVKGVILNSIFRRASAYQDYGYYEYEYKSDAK
Chain of UniProt O00206 (whole entry, looked up): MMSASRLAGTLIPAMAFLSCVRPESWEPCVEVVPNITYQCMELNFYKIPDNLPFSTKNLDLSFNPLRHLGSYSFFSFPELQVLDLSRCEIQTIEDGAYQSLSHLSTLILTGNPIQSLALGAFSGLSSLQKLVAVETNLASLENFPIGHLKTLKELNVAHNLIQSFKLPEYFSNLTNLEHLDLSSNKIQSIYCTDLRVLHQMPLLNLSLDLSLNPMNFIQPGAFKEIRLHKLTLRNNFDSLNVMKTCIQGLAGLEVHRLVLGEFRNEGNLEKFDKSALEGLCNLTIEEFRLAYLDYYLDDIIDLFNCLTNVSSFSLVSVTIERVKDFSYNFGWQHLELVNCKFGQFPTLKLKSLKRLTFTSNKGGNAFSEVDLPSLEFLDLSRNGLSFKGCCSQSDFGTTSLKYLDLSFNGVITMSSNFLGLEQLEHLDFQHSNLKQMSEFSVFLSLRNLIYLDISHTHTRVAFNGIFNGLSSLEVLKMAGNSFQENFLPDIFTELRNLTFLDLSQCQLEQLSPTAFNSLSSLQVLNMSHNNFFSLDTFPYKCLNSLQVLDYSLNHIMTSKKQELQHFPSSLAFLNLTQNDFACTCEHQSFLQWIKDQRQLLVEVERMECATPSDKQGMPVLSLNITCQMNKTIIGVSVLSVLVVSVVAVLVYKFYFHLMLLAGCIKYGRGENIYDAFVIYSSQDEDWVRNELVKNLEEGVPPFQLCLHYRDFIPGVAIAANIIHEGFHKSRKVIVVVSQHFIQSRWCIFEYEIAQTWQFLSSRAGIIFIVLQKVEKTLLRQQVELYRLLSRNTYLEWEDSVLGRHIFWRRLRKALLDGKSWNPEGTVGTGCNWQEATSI
Chain of UniProt P35555 (whole entry, looked up): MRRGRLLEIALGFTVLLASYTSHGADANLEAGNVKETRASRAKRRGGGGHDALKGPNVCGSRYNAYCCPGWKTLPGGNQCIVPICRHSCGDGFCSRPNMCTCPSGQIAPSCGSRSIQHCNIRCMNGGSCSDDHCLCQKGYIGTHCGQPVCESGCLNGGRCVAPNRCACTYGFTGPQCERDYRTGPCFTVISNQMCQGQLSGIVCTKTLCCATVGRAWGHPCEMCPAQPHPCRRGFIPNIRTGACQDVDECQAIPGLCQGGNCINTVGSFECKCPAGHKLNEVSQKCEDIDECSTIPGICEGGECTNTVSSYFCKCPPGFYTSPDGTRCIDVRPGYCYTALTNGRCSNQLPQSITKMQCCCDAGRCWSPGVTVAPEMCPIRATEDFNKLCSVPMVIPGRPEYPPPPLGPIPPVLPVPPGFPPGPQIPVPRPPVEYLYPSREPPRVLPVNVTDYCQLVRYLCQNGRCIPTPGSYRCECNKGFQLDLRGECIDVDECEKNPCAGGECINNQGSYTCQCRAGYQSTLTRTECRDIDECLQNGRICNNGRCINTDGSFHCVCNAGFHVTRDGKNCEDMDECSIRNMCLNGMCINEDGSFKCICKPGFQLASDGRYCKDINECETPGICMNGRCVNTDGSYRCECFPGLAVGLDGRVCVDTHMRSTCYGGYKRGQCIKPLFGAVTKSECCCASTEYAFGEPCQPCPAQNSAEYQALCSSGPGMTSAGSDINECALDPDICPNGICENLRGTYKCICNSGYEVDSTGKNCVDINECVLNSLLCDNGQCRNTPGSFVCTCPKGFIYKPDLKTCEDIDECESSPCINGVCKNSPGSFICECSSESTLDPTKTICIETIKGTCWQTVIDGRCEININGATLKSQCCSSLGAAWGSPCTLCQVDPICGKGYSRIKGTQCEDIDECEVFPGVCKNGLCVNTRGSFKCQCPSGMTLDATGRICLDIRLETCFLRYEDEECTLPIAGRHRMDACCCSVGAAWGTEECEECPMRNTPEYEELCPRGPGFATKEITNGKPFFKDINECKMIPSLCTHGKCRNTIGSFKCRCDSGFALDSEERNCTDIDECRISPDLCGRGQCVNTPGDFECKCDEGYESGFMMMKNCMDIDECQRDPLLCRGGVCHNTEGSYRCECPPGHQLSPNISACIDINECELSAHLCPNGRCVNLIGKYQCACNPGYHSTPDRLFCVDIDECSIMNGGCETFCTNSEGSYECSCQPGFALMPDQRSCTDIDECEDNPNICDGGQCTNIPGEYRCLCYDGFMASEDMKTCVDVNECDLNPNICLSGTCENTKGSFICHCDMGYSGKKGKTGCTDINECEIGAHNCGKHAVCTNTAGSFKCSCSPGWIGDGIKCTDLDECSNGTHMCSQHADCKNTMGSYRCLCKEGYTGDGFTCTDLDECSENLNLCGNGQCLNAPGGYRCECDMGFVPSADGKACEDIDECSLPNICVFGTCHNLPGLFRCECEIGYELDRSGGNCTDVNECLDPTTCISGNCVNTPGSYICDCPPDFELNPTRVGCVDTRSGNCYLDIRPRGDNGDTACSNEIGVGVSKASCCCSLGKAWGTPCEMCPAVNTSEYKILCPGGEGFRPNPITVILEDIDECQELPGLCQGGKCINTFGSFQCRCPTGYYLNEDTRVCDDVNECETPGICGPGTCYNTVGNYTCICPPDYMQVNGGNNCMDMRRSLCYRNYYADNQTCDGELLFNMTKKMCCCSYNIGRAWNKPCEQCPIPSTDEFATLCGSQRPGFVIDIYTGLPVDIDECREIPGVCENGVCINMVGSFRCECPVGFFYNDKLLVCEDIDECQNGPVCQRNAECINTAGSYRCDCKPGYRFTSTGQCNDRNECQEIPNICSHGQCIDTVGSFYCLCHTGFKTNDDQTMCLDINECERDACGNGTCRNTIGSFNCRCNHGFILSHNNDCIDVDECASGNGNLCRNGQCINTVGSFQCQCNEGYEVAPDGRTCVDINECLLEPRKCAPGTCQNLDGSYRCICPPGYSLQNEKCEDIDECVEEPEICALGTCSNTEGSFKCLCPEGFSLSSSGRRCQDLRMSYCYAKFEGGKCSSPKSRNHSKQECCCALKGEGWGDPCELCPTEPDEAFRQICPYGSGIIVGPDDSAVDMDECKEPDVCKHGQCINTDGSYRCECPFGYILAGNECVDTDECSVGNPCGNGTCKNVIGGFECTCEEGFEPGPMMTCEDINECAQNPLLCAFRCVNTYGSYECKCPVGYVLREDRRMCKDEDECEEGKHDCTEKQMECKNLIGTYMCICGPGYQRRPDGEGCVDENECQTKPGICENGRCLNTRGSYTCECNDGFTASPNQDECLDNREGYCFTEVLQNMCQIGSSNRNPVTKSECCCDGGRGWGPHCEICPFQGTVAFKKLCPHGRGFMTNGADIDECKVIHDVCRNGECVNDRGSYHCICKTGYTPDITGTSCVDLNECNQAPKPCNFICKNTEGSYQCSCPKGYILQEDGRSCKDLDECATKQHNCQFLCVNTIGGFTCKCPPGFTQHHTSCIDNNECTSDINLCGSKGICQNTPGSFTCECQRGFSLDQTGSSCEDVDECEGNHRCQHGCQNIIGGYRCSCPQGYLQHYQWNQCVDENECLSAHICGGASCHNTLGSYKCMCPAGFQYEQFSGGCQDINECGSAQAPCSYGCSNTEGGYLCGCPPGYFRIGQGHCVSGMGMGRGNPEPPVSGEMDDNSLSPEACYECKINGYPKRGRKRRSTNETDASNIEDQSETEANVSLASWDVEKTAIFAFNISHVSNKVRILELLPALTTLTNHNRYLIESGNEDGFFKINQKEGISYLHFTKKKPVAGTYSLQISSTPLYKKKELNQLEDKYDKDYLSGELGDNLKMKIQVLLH

`B1 (CyaY 1-106)` has a Kd of 23 ± 3 µM (IscS 1-404 (Escherichia coli, UniProt P0A6B7); BLI; pH 7.5, 25 °C, NaCl 150 mM, with: IscU 10 µM).
With `B2 (acrA)` the Kd was 0.67 µM (acrB C493S/C887S/S1043C (Escherichia coli, UniProt P31224); SPR; pH 7.5, 150 mM NaCl, global fit, Langmuir).
`B3 (wzb)` has a Kd of 8.6 ± 0.6 µM (wzc 447-704 (Escherichia coli, UniProt P76387); NMR titration; 25 °C, apparent).
The Kd of `B4 (LY96 LOS-bound)` is reported as 0.000734 ± 4e-05 µM (TLR4 (Homo sapiens, UniProt O00206); radioligand binding; HEK293 expressing TLR4; 30 min, pH 7.4, 37 °C, Scatchard analysis, in cells).
With `{FITC}-GFID[pS]D[pT]DVEEE-NH2 (peptide; N-terminal FITC, pS5, pT7, C-terminal amide; FITC = O=C1OC2(c3ccc(O)cc3Oc3cc(O)ccc32)c2ccc(NC(=S)*)cc21; pS = N[C@@H](COP(=O)(O)O)C(=O)O; pT = C[C@@H](OP(=O)(O)O)[C@H](N)C(=O)O)` the Kd was 120 ± 10 µM (TOPBP1 641-746 A707D (Homo sapiens, UniProt Q92547); fluorescence polarisation; peptide; pH 7.5, NaCl 150 mM).
For `melittin`, “heat capacity change” read -0.35 kcal/mol/K (membrane partitioning, CD van't Hoff analysis; POPC/POPG LUVs 75:25%; concentration not given, 5 to 60 °C).
With `ATTO488-QMVRMILKIDDIRKPGESEE (CCT5 peptide 522-541 (Homo sapiens, UniProt P48643); N-terminal ATTO488 label)` the Kd was 0.245 ± 0.052 µM (DDB1/DCAF12 1-1140 (Homo sapiens); TR-FRET; peptide; pH 7.4, NaCl 200 mM, equimolar binding assumed).
For `B5 (FBLN5 42-448)`, the Kd was 0.063 ± 0.014 µM (FBN1 31-489 (Homo sapiens, UniProt P35555); ELISA).
The Kd of `TVTRALRDLMQGILQKI (pscF 69-85 (Pseudomonas aeruginosa, UniProt P95434); sequence looked up)` is reported as 10.5 µM (pscG (Pseudomonas aeruginosa, UniProt P95435); ITC; peptide; pH 7.0, 25 °C).
With `TCTACAGCCAATCAGTATCATTATAAAGAAGCTGACGGGAGG (dsDNA)` the Kd was less than 0.1 µM (HapB/HapC/HapE/HapX HapX 24-158 (Aspergillus fumigatus); SPR; double-stranded DNA, one strand shown; HapX on preformed CBC:DNA).
`B6 (lexA 81-204 S125A)` has a Kd of 0.39 ± 0.05 µM (recA ssDNA/ATPγS-bound filament (Pseudomonas aeruginosa, UniProt P08280); fluorescence polarisation; 37 °C, apparent, with: ATPγS).
With `CD24/Siglec-10 blocking peptide, D-amino acids` the Kd was 0.22 µM (Cd24a (Mus musculus, UniProt P24807); MST).
The Kd of `{FITC-Ahx}-LWGFLSRNKKPRICTREEF (NS5 NLS central peptide (dengue virus 1); N-terminal FITC, AHX linker; FITC = O=C1OC2(c3ccc(O)cc3Oc3cc(O)ccc32)c2ccc(NC(=S)*)cc21; Ahx = NCCCCCC(=O)O)` is reported as 0.36 ± 0.04 µM (KPNA6 fragment (Homo sapiens); fluorescence polarisation; peptide; pH 8, one-site fit).
